Assay results of several laboratories.
Compare with care: the assays were run in different laboratories. ± gives the spread as reported.

The remaining analyte of `CC(C)(O)[C@H]1Cc2cc3ccc(=O)oc3cc2O1` is reported as 96.8 ± 6.3% (spiked rat plasma QC samples; 0.1, 0.5, 5.0 µg/mL, 12 h, room temperature).
`CNC(=O)c1ccc(N2CCN(Cc3ccc4nc(C)c(=O)[nH]c4c3F)CC2)c([18F])n1` gave a remaining parent of > 95% (cynomolgus monkey plasma; 90 min).
Under “remaining intact compound”, `CN(Cc1ccc(F)cc1)Cc1cc(=O)oc2cc(O)ccc12` is recorded as > 99% (human serum; 0.5 mM, 0 min).
`C=CC(=O)Nc1cc(Nc2nccc(-c3cn(C)c4ccccc34)n2)c(OCC(F)(F)F)nc1N(C)CCNC`: “remaining parent compound” 32% (LC-MS; human liver microsomes; 3 µM, 60 min, with: quercetin 20 µM; relative to: no inhibitor).
For `COc1cc(NC(C)=O)c2c(c1O)-c1c(OC)c(OC)cc3c1C(C2)N(C)CC3` (stereo not drawn), the remaining compound was 88.2 ± 0.6% (rat liver homogenate; 5 µg/mL, 40 d, -20 °C, long-term storage).
Under “remaining parent compound”, `C=CC(=O)Nc1cc(Nc2nccc(-c3cn(C)c4ccccc34)n2)c(OCC(F)(F)F)nc1N(C)CCN(C)C` is recorded as 61% (LC-MS; human liver microsomes; 3 µM, 60 min, with: ticlopidine 24 µM; relative to: no inhibitor).
`CCCC(CCC)NC(=O)c1ccc(O)c(OC)c1`: “remaining parent compound” 100% (rat liver microsomes; 1.0 µM, 0 min, pH 7.4).
`C=CC(=O)Nc1cc(Nc2nccc(-c3cn(C)c4ccccc34)n2)c(OCC(F)(F)F)nc1NC` — result for “remaining parent compound”: 81% (LC-MS; human liver microsomes; 3 µM, 60 min, with: α-naphthoflavone 2 µM; relative to: no inhibitor).
`CCCC(CCC)NC(=O)c1ccc(OC)c(O)c1`: “remaining parent compound” 100% (rat liver microsomes; 1.0 µM, 0 min, pH 7.4).

Repeated from above:
`C=CC(=O)Nc1cc(Nc2nccc(-c3cn(C)c4ccccc34)n2)c(OCC(F)(F)F)nc1N(C)CCNC`: “remaining parent compound” 32% (LC-MS; human liver microsomes; 3 µM, 60 min, with: quercetin 20 µM; relative to: no inhibitor).
